Measured values collected from several papers.
A part holds a random share of what one study measured.

Study 1
Target: Histone acetyltransferase KAT6A, both winged helices, GST fusion (KAT6A, Homo sapiens, UniProt Q92794, residues 1-181)
Technique: protein binding microarray
Form: double-stranded DNA, one strand shown
Matrix: in vitro
Tested at: not given
Notes: 8-mer, flanks averaged, mean of 2 arrays, mostly near background
Relative to: not given
Reading: higher = stronger binding
Construct (chain): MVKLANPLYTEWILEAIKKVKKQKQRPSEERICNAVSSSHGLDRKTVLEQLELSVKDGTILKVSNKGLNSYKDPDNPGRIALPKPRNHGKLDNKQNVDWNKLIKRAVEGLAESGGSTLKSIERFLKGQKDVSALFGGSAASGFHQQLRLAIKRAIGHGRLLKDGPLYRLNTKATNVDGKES
| Strand | E-score |
| --- | --- |
| CATCAGGA | -0.0847 |
| AAGATATG | -0.104 |
| GGGAGTTA | -0.111 |
| GAAGCAAA | -0.0974 |
| TATCTAAA | 0.03 |
| CTTGTGCC | -0.0962 |
| CACCAACG | 0.143 |
| CTTGGGCC | -0.056 |
| CCAGGCAC | -0.202 |
| ACGTCCGC | 0.243 |
| AGCACCCA | -0.174 |
| CCCGAACC | -0.0416 |
| CGCTTTCC | 0.232 |
| ACAAGCAT | -0.14 |
| AACTATTC | 0.0309 |
| ACCTATGA | -0.0485 |
| GGACCTTA | -0.13 |
| CTTCTACA | -0.102 |
| CCCCGTGC | 0.231 |
| CGTATCAC | 0.147 |
| ATTAAGAG | -0.116 |
| CCATACGA | -0.154 |
| ATGGTTCA | 0.0657 |
| CCCTGGCC | -0.0808 |
| CATTTGGC | -0.158 |

Study 2
Target: Centromere-binding protein 1, full length, His-tagged (CBF1, Saccharomyces cerevisiae, UniProt P17106, residues 1-351)
UniProt P17106, sequence (whole entry, looked up): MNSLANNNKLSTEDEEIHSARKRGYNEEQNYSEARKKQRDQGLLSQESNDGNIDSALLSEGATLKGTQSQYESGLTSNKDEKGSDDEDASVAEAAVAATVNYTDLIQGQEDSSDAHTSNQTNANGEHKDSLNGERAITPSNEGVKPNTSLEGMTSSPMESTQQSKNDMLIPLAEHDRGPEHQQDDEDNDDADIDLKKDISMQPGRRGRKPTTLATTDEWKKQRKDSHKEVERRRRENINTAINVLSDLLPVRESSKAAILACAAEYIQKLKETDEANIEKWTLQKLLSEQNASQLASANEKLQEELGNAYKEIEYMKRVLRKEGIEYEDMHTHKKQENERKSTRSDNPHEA
Technique: competition protein-binding microarray
Form: double-stranded DNA, one strand shown
Matrix: in vitro
Tested at: 2 µM
Notes: whole 60-bp probe, lowest competitor level
Added: Pho4 competitor, 0.05 µM
Reading: higher = stronger binding
Constant ends, left off below: … GTCTTGATTCGCTTGACGCTGCTG
| Strand | fluorescence intensity |
| --- | --- |
| CTTTCCCGATCTTGAAATGTGGGTGTAGCACATTTG | 83.1 a.u. |
| AAGCTGAAGGTGCATTGCATGACGCACTATGTGTGG | 66.2 a.u. |
| CTGAACCAGATGTTGCTCGTGGATTGGTTCGGTACC | 65 a.u. |
| AAATTAATTATTCAACACGTGATGGAGTTACTCTAA | 6300 a.u. |
| CATACCCAACCTTTTCACGTGTGTTAAGATATTTGT | 973 a.u. |
| TAGGCCGTCTTATGTAACGTGGTGAACGCTGCCTAG | 75.7 a.u. |
| GTCTTGTCTCATTGACCCGTGGGTGTCCCCACTTCA | 72.4 a.u. |
| CTTCTGTAAATTTGAAGGGTGGGTGGACGCGCCCCG | 83.1 a.u. |
| AACAATGGTCATAAACATGTGGTGAGCAATGTTTCA | 127 a.u. |
| AGTGGGCTTTCTTGTCATGCCACTCAAGTTACAAGC | 99.5 a.u. |
| GAAAGCATCCGACGCCGCGTGGTCAATTTGTTCCTT | 76.5 a.u. |
| AAATTATAATTCGCTCTCATGATAACCACATCTGTC | 72.5 a.u. |
| CCGCCCTTCTTCCGTCCCGTGCGGAAGGGGGGCGCG | 145 a.u. |
| CAAGAAATAAAAGAAAACGTGACTCGAGGCCTCCAT | 1270 a.u. |
| CTTCTGTAAATTTGGGTCGTGGGTGGACGCGCCCCG | 61.6 a.u. |
| GTCTTGTCTCATTGCAATGTGGGTGTCCCCACTTCA | 113 a.u. |
| CTAACGAAGGTTTGAACGGTGGGTGACAAGCCAAGT | 61.9 a.u. |
| CGAATACGGGCGGCATTCGTGATGGCAATAGATTTA | 74 a.u. |
| TGCGCAACAACTTGTGGCGTGGGTGTATGTCTAGAA | 66.6 a.u. |

Study 3
Target: Ras GTPase-activating protein-binding protein 1, full length (G3BP1, Homo sapiens, UniProt Q13283)
UniProt Q13283, sequence (whole entry, looked up): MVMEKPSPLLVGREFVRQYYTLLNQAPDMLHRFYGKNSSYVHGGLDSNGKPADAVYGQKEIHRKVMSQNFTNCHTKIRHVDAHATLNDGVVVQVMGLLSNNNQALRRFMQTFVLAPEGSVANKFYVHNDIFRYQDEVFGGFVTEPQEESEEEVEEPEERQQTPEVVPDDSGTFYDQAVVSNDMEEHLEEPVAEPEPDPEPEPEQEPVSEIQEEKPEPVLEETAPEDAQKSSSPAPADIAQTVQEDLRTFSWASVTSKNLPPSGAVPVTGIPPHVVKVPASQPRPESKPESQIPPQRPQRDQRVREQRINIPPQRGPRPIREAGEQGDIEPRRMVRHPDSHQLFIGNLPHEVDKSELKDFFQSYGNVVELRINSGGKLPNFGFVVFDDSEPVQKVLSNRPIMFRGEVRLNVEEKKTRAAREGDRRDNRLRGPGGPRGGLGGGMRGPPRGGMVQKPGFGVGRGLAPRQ
Technique: RNA Bind-n-Seq
Form: RNA
Matrix: in vitro
Tested at: 200 nM
Notes: whole 134-nt RNA, ends assumed
Added: 150 mM KCl
Relative to: input library
Reading: higher = stronger binding
Constant ends, left off below: GGGAGUUCUACAGUCCGACGAUC … UGGAAUUCUCGGGUGUCAAGG
| Strand | log2 enrichment |
| --- | --- |
| UGCACACCGCCUUGCACAUAGCAGAGGCUCCGGGCUCACUCCUUCCUGGUGGGAAAGGAAGAUGCCUGUCCUCUCCGUGGAAGACCCUGG | -1.45 |
| AAGUCCUGUGCUACACAUCGUAUGUACCGAAUCGGGGCCCGGGCCCGGGCCCGGGGAAAGUAUUAUGUUACGCCGUUCGGAUCUGCACUU | -0.655 |
| GUCCUGUGCUACACAUCGUAUGUACCGAAUCGGGUUUUUGGGUUUUUGGGUUUUUGGGGAAAGUAUUAUGUUACGCCGUUCGGAUCUGCA | -0.147 |
| GUCCUGUGCUACACAUCGUAUGUACCGAAUCGGGAAAAAAAGGGAAAGGGUUUUUGGGAAAGUAUUAUGUUACGCCGUUCGGAUCUGCAC | -0.459 |
| GUCCUGUGCUACACAUCGUAUGUACCGAAUCGGAAAAAGGGGAAAAAGGGAAAAAGGGAAAGUAUUAUGUUACGCCGUUCGGAUCUGCAC | -0.595 |
| CAAGUCCUGUGCUACACAUCGUAUGUACCGAAUCGGGCCCGGGGCCCGGGCCCGGGAAAGUAUUAUGUUACGCCGUUCGGAUCUGCACUU | -1.02 |
| ACCAUGCAGGUGGGCAUCUUUGGGAAGUGGGGCAAGGGGGGGAUAGGGAGGGGGGUAACACUUUGGGAACAGGUGGUCCCAGGUCGUUCC | 1.12 |
| ACCAUGCAGGUGGGCAUCUUUGGGAAGUGGGUCAAGGGGGGGAUAGGGAGGGGGGUAACACUUUGGGAACAGGUGGUCCCAGGUCGUUUC | 1.51 |
| CCUGUGCUACACAUCGUAUGUACCGAAUCGGGGAAAAAAAGGGGAAAAAGGGGUUUGGGGAAAGUAUUAUGUUACGCCGUUCGGAUCUGC | 0.267 |

Study 4
Target: RING finger protein unkempt homolog, zinc fingers 1-6, GST-SBP tag (UNK, Homo sapiens, UniProt Q9C0B0, residues 30-357)
UniProt Q9C0B0, sequence (30-357, looked up): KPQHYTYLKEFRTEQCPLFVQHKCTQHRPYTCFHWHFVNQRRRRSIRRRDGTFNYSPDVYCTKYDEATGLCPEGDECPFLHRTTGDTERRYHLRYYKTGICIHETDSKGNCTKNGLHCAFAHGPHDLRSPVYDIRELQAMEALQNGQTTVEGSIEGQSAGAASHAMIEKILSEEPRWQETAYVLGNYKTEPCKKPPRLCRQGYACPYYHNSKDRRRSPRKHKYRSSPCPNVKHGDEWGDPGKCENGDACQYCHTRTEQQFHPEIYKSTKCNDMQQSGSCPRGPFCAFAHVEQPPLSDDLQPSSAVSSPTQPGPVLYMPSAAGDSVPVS
Technique: RNA Bind-n-Seq
Form: RNA
Matrix: in vitro
Tested at: not given
Notes: RNA with constant flanks, human-mouse chimeric sites, ends assumed
Relative to: input RNA pool
Reading: higher = stronger binding
Constant ends, left off below: GGGAGUUCUACAGUCCGACGAUC … CAACAGAGGAUUGAGCAUCA
| Strand | bound/input enrichment [ratio] |
| --- | --- |
| AAAGAGUGGAUAGAGUGUGCACACGGGAUCGGUGGGACUCGGGCAGAGAAAGAGUGCAAGAUAGAGUUCGAUGACUUCGAAGAGUGCUUGCUUCGGUACAAAACGAUGAGGCGAAUGCAU | 0.463 |
| AAAGAAUGGAUAGAGUGUGCACACGGGAUCGGUGGGACCCGGGCGAAAAAGGAGUGCAAGAUAGAGUUCGAUGACUUCGAAGAGUGCUUGCUUCGGUAGAAAACGAUGAGGCGAAUGCAU | 0.775 |
| GUGACUGACAUUAAAAUUUCCCCUCAGCAAAGAAGUGUAGCAGUGACCAUAAUUCCAUCUGUGGUGAGUGCCAGUCAGAUUGUGGAGCUGGUCCCAGACCUCAGUUUAGACAUGGGAACU | 0.383 |
| ACUCAGAGAUCCACCUCAAUUGAAGUGGGGAGUAAAGGUGUGGCCACCACACCUAACUUCAUAGACAUAUAUUUUUUUUAAUAUGAAUCUUCCUGUUCGUCCAGGGAAGAAAGAUUUGUU | 26.7 |
| AAAGAGAAACUAAAGCAACUAAUAGAGGAAGAGGAUUGCAAAGAGAAUUUCAUAGAGAAACUAGGAUUUAUUAGCAAAACAUGAGUUUAUUCCAGAGCGUCUCAGAAACCCCAGCCAAAC | 9.39 |
| AAUGUUCUUAAUAUUUUUGAAUAAAUGAAGCUAAAAUUUUGCUUUCUGGUACAACACGCAUUAAUAAAAGGUUAAGUUUUGUUUUCCACUGAAGUACUAUUUAACAUCUCAGAAAAAAAC | 0.356 |
| GCGGCAGAAUCAUGGUGGACAUAAUGCAGCUCCCCAAAGCGCGCGUCAACGCCAGCAUGUUACCACAGUAUAUCGACCGGCCCGUGUGCUUCGUGGGGAGGCUGGAAAAGAUUCAUCCCA | 0.138 |
| AACUUCGUGCAUCGGUUUCCUUUUGUAGCUGUUUCAAUUGGCUUCCUUGUGAAUAAAGAGAUGGAGUUUGGAAUUGUGUACAGCUGUGUGGAAGAUAAGAUGUACACUGCCAGAAAAGGG | 0.287 |

For quick reference, copied from above (study 1):
| Strand | E-score |
| --- | --- |
| CGTATCAC | 0.147 |
| ATTAAGAG | -0.116 |
| CCATACGA | -0.154 |
| ATGGTTCA | 0.0657 |
| CCCTGGCC | -0.0808 |
| CATTTGGC | -0.158 |
